Published values of several laboratories.
± marks the error that the study gave.

For NC[C@@H]1O[C@H](O[C@H]2[C@@H](O)[C@H](O[C@@H]3[C@@H](O)[C@H](N)C[C@H](N)[C@H]3O[C@H]3O[C@H](CO)[C@@H](O)[C@H](O)[C@H]3N)O[C@@H]2CO)[C@H](N)[C@@H](O)[C@@H]1O, the IC50 was 2.7 µM (Mycobacterium smegmatis 70S ribosome; phenylalanine incorporation, inhibitor, cell-free translation; hybrid ribosomes 0.25 µM; 60 min, 37 °C, added: (UUU)12 mRNA).
The IC50 of Cc1cc(O)cc2c1O[C@](C)(CCC[C@H](C)CCC[C@H](C)CCCC(C)C)CC2 is reported as > 30 µM (COX-1 (rat); thromboxane B2 formation; washed rat platelets; 25 min pretreatment, added: A23187 1-2 µM).
For O=C(NCNC(=O)NC1C(=O)NC(=O)N1CO)NC1C(=O)NC(=O)N1CO (centres unmarked), IC50 read “inactive” (cysteine peptide Ac-RFAACAA-COOH; peptide depletion, DPRA RapidFire-MS/MS; 24 h, pH 7.5, room temperature, added: 5.0 µM cysteine peptide).
For O=C(CCCCCCC(=O)Nc1ccccc1)NO, the IC50 was 0.146 ± 0.0076 µM (HDAC (HeLa nuclear extract); enzyme activity, inhibitor).
With CC[C@H](C)[C@@H]1C(=O)O[C@H]1C(=O)N[C@H](C(=O)N[C@@H](CC(C)C)C(=O)OCc1ccccc1)C(C)C the IC50 was 1.51 ± 0.16 µM (human proteasome β2 subunit).
COc1ccc(C=O)cc1OC has an IC50 of > 10 µg/mL (anti-eugenol monoclonal antibody mouse; antibody binding, indirect competitive ELISA; antibody 0.25 µg/mL, added: coating antigen Eug-222-OVA 0.5 µg/mL).
With Cc1cc(Nc2nc(N[C@@H](C)c3ncc(F)cn3)ncc2Cl)n[nH]1 the IC50 was 0.15 µM (Stat5a, human; reporter gene, inhibitor, luciferase reporter; PC-3; 1 h pretreatment, added: human prolactin 10 nM, 16 h).
The IC50 of C/C=C1\NC(=O)[C@@H](NC(=O)[C@@H](NC(=O)[C@H](C)NC(=O)C/C(C)=C/Cl)[C@@H](C)CC)[C@@H](C)OC(=O)[C@H](C(C)C)NC(=O)[C@H](Cc2ccc(O)cc2)N(C)C(=O)[C@H](Cc2ccccc2)N2C(=O)[C@H](CC[C@H]2O)NC1=O is reported as > 20 µM (bovine trypsin; enzyme activity, inhibitor; 30 min, pH 7.4, 22 °C, added: Z-Leu-Arg-Arg-AMC).
With O=C(NC(=O)c1c(F)cccc1F)Nc1cc(Cl)c(Oc2ncc(C(F)(F)F)cc2Cl)c(Cl)c1 the IC50 was > 1 µg/mL (mAb-19F2 (BALB/c mouse monoclonal antibody); antibody binding, indirect competitive ELISA).
O=C(N/N=C/c1ccc([N+](=O)[O-])o1)c1cc([N+](=O)[O-])cc([N+](=O)[O-])c1O has an IC50 of 63.3 µM (phenylalanyl-tRNA synthetase, P. aeruginosa; poly-Phe synthesis, aminoacylation-translation; Pseudomonas aeruginosa).
O=C(NC(=O)c1ccccc1Cl)Nc1ccc(Cl)cc1 has an IC50 of > 1 µg/mL (mAb-19F2 (BALB/c mouse monoclonal antibody); antibody binding, indirect competitive ELISA).
For COC[C@@H](NC(C)=O)C(=O)NCc1ccc(COc2ccccc2F)cc1, the IC50 was 4.9 ± 0.9 µM (voltage-gated sodium channel; peak sodium current, inhibitor, whole-cell patch clamp; CAD; 0 mV from -80 mV holding).
With CCCOC1CC(C)C([N+](=O)[O-])=C2N(Cc3ccc(Cl)nc3)CCN21 (centres unmarked) the IC50 was > 1 µg/mL (mAb-19F2 (BALB/c mouse monoclonal antibody); antibody binding, indirect competitive ELISA).
For CC[C@H](C)[C@@H]1C(=O)O[C@H]1C(=O)NCC(=O)N[C@H](C(=O)OCc1ccccc1)C(C)C, the IC50 was 0.261 ± 0.008 µM (human proteasome β2 subunit).
The IC50 of CC(C)(C)N(NC(=O)c1ccccc1)C(=O)c1ccccc1 is reported as > 1 µg/mL (mAb-19F2 (BALB/c mouse monoclonal antibody); antibody binding, indirect competitive ELISA).
With CC(C)C[C@@H]1C(=O)O[C@H]1C(=O)N[C@H](C(=O)N[C@H](C(=O)OCc1ccccc1)C(C)C)C(C)C the IC50 was 4.58 ± 0.161 µM (human proteasome β2 subunit).
The IC50 of CCCSc1ccc2nc(NC(=O)OC)[nH]c2c1 is reported as 9.44 µM (human HDAC class I/II; enzyme activity, inhibitor, HDAC-Glo I/II; HCT-116).
With NC[C@@H]1O[C@H](O[C@H]2[C@@H](O)[C@H](O[C@@H]3[C@@H](O)[C@H](N)C[C@H](N)[C@H]3O[C@H]3O[C@@H]4CO[C@@H](CCc5ccccc5)O[C@H]4[C@H](O)[C@H]3N)O[C@@H]2CO)[C@H](N)[C@@H](O)[C@@H]1O the IC50 was 0.1 ± 0.03 µg/mL (Mycobacterium smegmatis ribosome wild type; translation, cell-free luciferase synthesis).
For CC[C@H](C)[C@@H]1C(=O)O[C@H]1C(=O)N[C@H](C(=O)N[C@H](C(=O)OCc1ccccc1)C(C)C)C(C)C, the IC50 was 1.43 ± 0.089 µM (human proteasome β2 subunit).
N#CCCC(Br)(C#N)CBr (centres unmarked) has an IC50 of 1.01 µM (cysteine peptide Ac-RFAACAA-COOH; peptide depletion, DPRA RapidFire-MS/MS; 24 h, pH 7.5, room temperature, added: 5.0 µM cysteine peptide).
For Cc1c2ccncc2c(C)c2c1[nH]c1ccccc12, the IC50 was 0.054 ± 0.053 µM (NQO2; protection from toxicity; MDA-MB-468; 3 h, added: CB1954 100 µM plus NRH 100 µM).
For CCOC(=O)c1ccc(N)cc1, the IC50 was > 3000 µM (batrachotoxin-modified sodium channel, rat; ion current, inhibitor, whole-cell voltage clamp; GH3; resting channels, held at -170 mV).
For COC[C@@H](NC(C)=O)C(=O)NCc1ccc(OCc2cccc(F)c2)cc1, the IC50 was 13.6 ± 4.1 µM (voltage-gated sodium channel; peak sodium current, inhibitor, whole-cell patch clamp; CAD; 0 mV from -80 mV holding).
C=Cc1ccccn1: IC50 “inactive” (cysteine peptide Ac-RFAACAA-COOH; peptide depletion, DPRA RapidFire-MS/MS; 24 h, pH 7.5, room temperature, added: 5.0 µM cysteine peptide).
With NC(=O)c1ccsc1NC(=O)Cc1csc2ccccc12 the IC50 was 7.5 µM (JNK; c-Jun phosphorylation; HeLa GFP-c-Jun; 60 min, added: 2 ng/mL TNF-alpha).
CC[C@H](C)[C@@H]1C(=O)O[C@H]1C(=O)N[C@H](C(=O)N[C@@H](COCc1ccccc1)C(=O)OCc1ccccc1)C(C)C gave an IC50 of 1.56 ± 0.062 µM (human proteasome β2 subunit).
NC[C@@H]1O[C@H](O[C@H]2[C@@H](O)[C@H](O[C@@H]3[C@@H](O)[C@H](N)C[C@H](N)[C@H]3O[C@H]3O[C@H](CO)[C@@H](O)[C@H](O)[C@H]3N)O[C@@H]2CO)[C@H](N)[C@@H](O)[C@@H]1O gave an IC50 of 0.02 ± 0.01 µg/mL (Mycobacterium smegmatis ribosome wild type; translation, cell-free luciferase synthesis).
With C[C@H](NC(=O)C1CCNCC1)C(=O)Nc1ccc2c(c1)C(=O)c1ccc(NC(=O)[C@H](C)NC(=O)C3CCNCC3)cc1C2=O the IC50 was > 100 µM (HIV-1 nucleocapsid protein; TAR/cTAR annealing, inhibitor, gel electrophoresis).
With Cc1cc2c(C(C)C)c(O)c(O)c(C=O)c2c(O)c1-c1c(C)cc2c(C(C)C)c(O)c(O)c(C=O)c2c1O the IC50 was 13 µM (class IIa HDAC; enzyme activity; bovine heart lysate).
NCC1OC(OC2C(CO)OC(OC3C(O)C(N)CC(N)C3OC3OC(CO)C(OCCCc4ccccc4)C(O)C3N)C2O)C(N)C(O)C1O (centres unmarked) gave an IC50 of 0.2 ± 0.07 µg/mL (Mycobacterium smegmatis ribosome wild type; translation, cell-free luciferase synthesis).
For CCC[S+]([O-])c1ccc2[nH]c(NC(=O)OC)nc2c1 (centres unmarked), the IC50 was 3.76 µM (human HDAC class I/II; enzyme activity, inhibitor, HDAC-Glo I/II; HCT-116).
With NC[C@@H]1O[C@H](O[C@H]2[C@@H](O)[C@H](O[C@@H]3[C@@H](O)[C@H](N)C[C@H](N)[C@H]3O[C@H]3O[C@H](CO)C[C@H](O)[C@H]3N)O[C@@H]2CO)[C@H](N)[C@@H](O)[C@@H]1O the IC50 was 0.89 ± 0.4 µg/mL (Mycobacterium smegmatis ribosome A1408G; translation, cell-free luciferase synthesis).
The IC50 of CC(C)[C@H](NC(=O)[C@@H]1OC(=O)[C@H]1C1CCC1)C(=O)N[C@H](C(=O)OCc1ccccc1)C(C)C is reported as 4.07 ± 0.461 µM (human proteasome β2 subunit).
C=CC(=O)OCCO has an IC50 of 58.2 µM (cysteine peptide Ac-RFAACAA-COOH; peptide depletion, DPRA RapidFire-MS/MS; 24 h, pH 7.5, room temperature, added: 5.0 µM cysteine peptide).
For O=C(Nc1ccc(F)cc1)c1ccc(N(Cc2ccc(B(O)O)cn2)Cc2ccco2)nc1, the IC50 was 0.321 ± 0.096 µM (CXCR1/CXCR2 human; calcium flux, antagonist; human neutrophils; added: IL-8).
For CN1C(=O)N(c2ccccc2Br)Cc2cnc(Nc3ccc4c(c3)OCC(CO)O4)nc21 (centres unmarked), the IC50 was 0.57 µM (TGF-β/SMAD signalling; reporter gene, antagonist; SBE-bla HEK293T; primary qHTS screen, added: TGF-β1).
CC[C@H](C)[C@@H](C(=O)O[C@@H](CC(C)C)C(=O)N[C@@H](CC(C)C)C(=O)N[C@@H](C)/C=C/C(=O)N1C(=O)C=C(OC)[C@@H]1C)N(C)C has an IC50 of 0.0085 ± 0.0013 µM (falcipain 2/2'; enzyme activity, competitive activity-based probe; Plasmodium falciparum; 1 h, added: 1 µM Cy5-DCG-04).
COCc1cnc(C2=NC(C)(C(C)C)C(=O)N2)c(C(=O)O)c1 (centres unmarked) gave an IC50 of 16 µM (acetolactate synthase, Secale cereale (feral rye); enzyme activity, inhibitor, colorimetric acetoin; population without ALS mutation, crude plant extract; 1 h, pH 7, 37 °C, commercial formulation).
For CC[C@H](C)[C@@H]1C(=O)O[C@H]1C(=O)N[C@@H](CC(C)C)C(=O)N[C@H](C(=O)OCc1ccccc1)C(C)C, the IC50 was 2.95 ± 0.135 µM (human proteasome β2 subunit).
O=C(Nc1cccnn1)N1CCN([C@@H]2CCOc3cc(C(F)(F)F)ccc32)CC1 has an IC50 of 23 µM (GABA-gated Cl- channel; binding).
CCCC/C=N/N(Cc1ccc(Cl)nc1)/C(N)=N/[N+](=O)[O-] gave an IC50 of > 1 µg/mL (mAb-19F2 (BALB/c mouse monoclonal antibody); antibody binding, indirect competitive ELISA).

A few entries again:
C=Cc1ccccn1: IC50 “inactive” (cysteine peptide Ac-RFAACAA-COOH; peptide depletion, DPRA RapidFire-MS/MS; 24 h, pH 7.5, room temperature, added: 5.0 µM cysteine peptide).
With NC(=O)c1ccsc1NC(=O)Cc1csc2ccccc12 the IC50 was 7.5 µM (JNK; c-Jun phosphorylation; HeLa GFP-c-Jun; 60 min, added: 2 ng/mL TNF-alpha).
CC[C@H](C)[C@@H]1C(=O)O[C@H]1C(=O)N[C@H](C(=O)N[C@@H](COCc1ccccc1)C(=O)OCc1ccccc1)C(C)C gave an IC50 of 1.56 ± 0.062 µM (human proteasome β2 subunit).
NC[C@@H]1O[C@H](O[C@H]2[C@@H](O)[C@H](O[C@@H]3[C@@H](O)[C@H](N)C[C@H](N)[C@H]3O[C@H]3O[C@H](CO)[C@@H](O)[C@H](O)[C@H]3N)O[C@@H]2CO)[C@H](N)[C@@H](O)[C@@H]1O gave an IC50 of 0.02 ± 0.01 µg/mL (Mycobacterium smegmatis ribosome wild type; translation, cell-free luciferase synthesis).
With C[C@H](NC(=O)C1CCNCC1)C(=O)Nc1ccc2c(c1)C(=O)c1ccc(NC(=O)[C@H](C)NC(=O)C3CCNCC3)cc1C2=O the IC50 was > 100 µM (HIV-1 nucleocapsid protein; TAR/cTAR annealing, inhibitor, gel electrophoresis).
With Cc1cc2c(C(C)C)c(O)c(O)c(C=O)c2c(O)c1-c1c(C)cc2c(C(C)C)c(O)c(O)c(C=O)c2c1O the IC50 was 13 µM (class IIa HDAC; enzyme activity; bovine heart lysate).
